Assay results gathered from unrelated publications.
Each line is one published result; not all experiments were run side by side. ± marks the error that the study gave.
Chain of UniProt P53350 (whole entry, looked up): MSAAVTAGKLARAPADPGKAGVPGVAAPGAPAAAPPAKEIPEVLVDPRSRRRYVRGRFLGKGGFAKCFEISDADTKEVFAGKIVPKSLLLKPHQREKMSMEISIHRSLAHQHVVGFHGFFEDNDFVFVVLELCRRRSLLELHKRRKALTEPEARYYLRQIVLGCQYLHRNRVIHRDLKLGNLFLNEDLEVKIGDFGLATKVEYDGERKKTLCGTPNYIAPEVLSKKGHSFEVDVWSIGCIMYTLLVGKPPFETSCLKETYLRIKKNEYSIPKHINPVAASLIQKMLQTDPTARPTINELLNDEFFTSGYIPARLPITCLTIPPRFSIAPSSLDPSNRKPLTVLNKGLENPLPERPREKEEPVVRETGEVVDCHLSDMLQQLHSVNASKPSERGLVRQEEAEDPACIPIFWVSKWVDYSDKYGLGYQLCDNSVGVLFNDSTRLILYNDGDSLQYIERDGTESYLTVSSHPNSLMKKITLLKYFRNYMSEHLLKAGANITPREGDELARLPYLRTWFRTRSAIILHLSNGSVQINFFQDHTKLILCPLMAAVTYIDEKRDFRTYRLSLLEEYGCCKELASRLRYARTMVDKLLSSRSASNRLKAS
Chain of UniProt P51955 (whole entry, looked up): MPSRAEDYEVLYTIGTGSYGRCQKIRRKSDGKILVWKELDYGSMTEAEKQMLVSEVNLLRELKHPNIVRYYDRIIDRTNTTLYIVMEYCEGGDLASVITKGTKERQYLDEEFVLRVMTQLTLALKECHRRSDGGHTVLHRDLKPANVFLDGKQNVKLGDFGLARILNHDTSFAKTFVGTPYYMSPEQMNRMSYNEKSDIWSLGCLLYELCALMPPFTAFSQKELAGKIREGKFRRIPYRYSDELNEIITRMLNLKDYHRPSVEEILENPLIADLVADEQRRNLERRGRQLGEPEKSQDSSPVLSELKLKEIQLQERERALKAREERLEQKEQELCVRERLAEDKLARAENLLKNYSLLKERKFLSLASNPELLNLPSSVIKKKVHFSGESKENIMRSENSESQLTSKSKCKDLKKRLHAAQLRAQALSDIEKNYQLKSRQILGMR
Chain of UniProt Q13043 (whole entry, looked up): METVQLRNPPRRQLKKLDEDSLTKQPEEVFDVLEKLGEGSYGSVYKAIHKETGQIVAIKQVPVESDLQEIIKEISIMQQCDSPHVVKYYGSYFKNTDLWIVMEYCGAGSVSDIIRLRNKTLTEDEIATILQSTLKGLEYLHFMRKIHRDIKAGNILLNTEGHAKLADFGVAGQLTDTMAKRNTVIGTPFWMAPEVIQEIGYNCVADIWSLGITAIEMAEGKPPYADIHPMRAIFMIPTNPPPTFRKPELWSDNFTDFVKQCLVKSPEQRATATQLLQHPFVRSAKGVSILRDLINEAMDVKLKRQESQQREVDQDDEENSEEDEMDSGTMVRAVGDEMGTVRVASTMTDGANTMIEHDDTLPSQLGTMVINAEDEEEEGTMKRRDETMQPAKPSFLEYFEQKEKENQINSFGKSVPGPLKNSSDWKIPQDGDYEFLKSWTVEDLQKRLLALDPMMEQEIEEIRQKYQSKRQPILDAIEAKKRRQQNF
Chain of UniProt P35916 (whole entry, looked up): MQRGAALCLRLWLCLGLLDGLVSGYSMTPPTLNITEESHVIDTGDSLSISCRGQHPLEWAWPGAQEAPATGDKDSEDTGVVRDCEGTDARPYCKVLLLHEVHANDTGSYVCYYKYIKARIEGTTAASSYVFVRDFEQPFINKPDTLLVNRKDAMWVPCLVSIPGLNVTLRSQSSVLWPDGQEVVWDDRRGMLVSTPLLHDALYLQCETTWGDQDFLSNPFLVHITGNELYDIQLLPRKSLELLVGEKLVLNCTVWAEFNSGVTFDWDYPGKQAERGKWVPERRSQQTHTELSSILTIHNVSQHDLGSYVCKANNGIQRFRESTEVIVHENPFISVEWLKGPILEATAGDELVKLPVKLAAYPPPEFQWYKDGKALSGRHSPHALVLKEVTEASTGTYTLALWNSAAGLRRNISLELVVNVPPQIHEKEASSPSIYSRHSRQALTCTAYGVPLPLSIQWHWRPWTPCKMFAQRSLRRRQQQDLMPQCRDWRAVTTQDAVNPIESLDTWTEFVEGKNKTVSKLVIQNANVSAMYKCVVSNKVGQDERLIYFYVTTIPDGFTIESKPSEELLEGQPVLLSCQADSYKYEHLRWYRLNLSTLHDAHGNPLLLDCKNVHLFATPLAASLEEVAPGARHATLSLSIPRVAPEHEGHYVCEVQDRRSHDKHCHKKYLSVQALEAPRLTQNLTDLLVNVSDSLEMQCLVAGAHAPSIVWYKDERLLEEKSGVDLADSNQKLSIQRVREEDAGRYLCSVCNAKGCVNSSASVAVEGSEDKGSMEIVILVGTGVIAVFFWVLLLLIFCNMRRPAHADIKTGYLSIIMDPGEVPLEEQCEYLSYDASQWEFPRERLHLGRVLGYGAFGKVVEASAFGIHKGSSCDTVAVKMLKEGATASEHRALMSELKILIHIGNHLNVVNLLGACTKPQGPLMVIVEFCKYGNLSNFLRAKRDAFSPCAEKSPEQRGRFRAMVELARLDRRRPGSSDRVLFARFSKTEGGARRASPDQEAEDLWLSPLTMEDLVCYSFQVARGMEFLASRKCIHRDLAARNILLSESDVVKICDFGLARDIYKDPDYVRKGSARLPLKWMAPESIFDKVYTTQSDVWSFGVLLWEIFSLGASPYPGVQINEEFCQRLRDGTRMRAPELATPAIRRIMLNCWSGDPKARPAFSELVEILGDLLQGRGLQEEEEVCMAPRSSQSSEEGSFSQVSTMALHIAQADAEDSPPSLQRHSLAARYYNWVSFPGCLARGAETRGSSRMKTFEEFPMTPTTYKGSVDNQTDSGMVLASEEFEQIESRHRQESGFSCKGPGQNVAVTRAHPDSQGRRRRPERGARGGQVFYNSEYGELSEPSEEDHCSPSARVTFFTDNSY

Structure (SMILES)	target or system	test	test system	conditions	how to read	quantity	result
Cc1ccccc1CN1CCC(C(=O)N2CCc3ccccc32)CC1	Vero (eGFP)			15 h		CC50	> 100 µM
O=c1c(O)ccc(-c2cccc(-c3ccccc3)c2)cc1O	HepDES19					CC50	56 ± 7.4 µM
COc1ccc(-c2cnc3c(C#Cc4cccnc4)snc3c2)cc1OC	human cells			24 (unit not given)		CC50	> 10 µM
CCC(C)C1OC2(CCC1C)CC1CC(C/C=C(\C)C(OC3CC(OC)C(OC4CC(OC)C(O)C(C)O4)C(C)O3)C(C)/C=C/C=C3\COC4C(O)C(C)=CC(C(=O)O1)C34O)O2 (stereo not drawn)	FRT	cell growth or viability, MTS		48 h		CC50	10.5 µM
C[C@H](NC(=O)[C@@H](O)c1cc(F)cc(F)c1)C(=O)N[C@@H]1C(=O)N(C)c2ccccc2-c2ccccc21	Huh-7.5.1	cell growth or viability, ATP luminescence		48 h		CC50	> 64 µM
CC(C)CC(NC(=O)OCc1ccccc1)C(=O)NC(CC1CCNC1=O)C(=O)C(=O)NC1CC1 (stereo not drawn)	MDCK			5 (unit not given)		CC50	> 250 µM
CC[C@H](C)[C@H](NC(=O)[C@H](CO)NC(=O)[C@H](Cc1ccc(O)cc1)NC(=O)[C@H](Cc1ccc(O)cc1)NC(=O)[C@H](CC(N)=O)NC(=O)CNC(=O)[C@H](CO)NC(=O)[C@H](Cc1ccc(O)cc1)NC(=O)[C@H](CO)NC(=O)[C@H](CO)NC(=O)[C@H](CC(N)=O)NC(=O)COCCOCCNC(=O)CN1CCN(CC(=O)O)CCN(CC(=O)O)CCN(CC(=O)O)CC1)C(=O)N[C@@H](CC(C)C)C(N)=O [copper-64 labelled]		dynamic PET	KPC mouse Ptf1a-CreER tdTomato, metastases	intravenous, 4.6 MBq/mouse, 0.4 min, 84 d after tamoxifen		tissue uptake	8.81 %ID/mL
COc1ccccc1-c1n[nH]c2nc(N[C@H]3CC[C@H](NS(=O)(=O)CC(C)C)CC3)ncc12		bead binding, competition bead pull-down, refers to: LINJ.07.1150	Leishmania donovani extract	10 µM	relative to: vehicle	relative abundance	1.41
COc1ccc(-c2cnc3[nH]cc(C#Cc4cccnc4)c3c2)cc1OC	Calu-3	cell growth or viability, resazurin				CC50	> 60 µM
COc1ccc(-n2cc(C(=O)N3C[C@]4(OC(=O)c5ccccc5NC(C)=O)CC[C@H](OC)[C@@]56[C@@H]4C[C@@H]([C@@H]35)[C@@]3(O)C[C@H](OC)[C@H]4C[C@@H]6[C@]3(O)[C@H]4OC)nn2)cc1			Sprague-Dawley rat, plasma	intravenous, 2 mg/kg, 1 h		plasma concentration	14 ng/mL
O=C(NC(Cc1ccc2c(c1)OCO2)C(=O)N1CCCC1C(=O)O)c1ccccc1 (stereo not drawn)	Vero (eGFP)			15 h		CC50	> 100 µM
COC(=O)c1c(CCl)cc(O)c(=O)c(O)c1C(=O)OC	HepDES19					CC50	> 80 µM
N=C(N)NCCC[C@H](NC(=O)[C@H](CCCNC(=N)N)NC(=O)[C@H](CCCNC(=N)N)NC(=O)[C@H](CCC(N)=O)NC(=O)[C@H](CCCNC(=N)N)NC(=O)[C@H](CCCNC(=N)N)NC(=O)[C@H](CCCCN)NC(=O)[C@H](CCCCN)NC(=O)[C@H](CCCNC(=N)N)NC(=O)CNC(=O)[C@H](Cc1ccc(O)cc1)NC(=O)[C@H](Cc1ccccc1)NC(=O)[C@H](Cc1ccccc1)NC(=O)[C@H](Cc1ccccc1)NC(=O)Cc1ccc2ccccc2c1)C(=O)O	RAW264.7	cell growth or viability				CC50	36.6 µM
CCOC(=O)c1c(C)nc2cccc(N)n12	Vero (eGFP)			15 h		CC50	> 100 µM
Cc1cc(O)c(=O)c(O)cc1C(=O)O	HepDES19					CC50	> 100 µM
Cc1cc(-n2c(=O)ccc3cnc4[nH]ccc4c32)ccc1F	Calu-3	cell growth or viability, resazurin				CC50	> 60 µM
Cc1nc2cccc(OCC(C)(C)C(=O)NC(C)C)c2c(N)c1C(=O)[O-].[Na+]	Salmonella typhimurium	Ames plate incorporation	TA1537	0.80 mg/plate, with: with rat liver S9		revertant colonies	15 ± 3 colonies/plate
O=C1NC(=O)c2c1c1cc(F)c[n+]3c1c1c2c2cc(O)ccc2[n]1[Ru-4]312([N]=C=S)[S+]3CC[S+]1CC[S+]2CC3 (stereo not drawn)	Serine/threonine-protein kinase 4 (STK4, Homo sapiens, UniProt Q13043)	enzyme activity		100 nM, human enzyme, with: 10 µM ATP	relative to: untreated	remaining activity	12%

Structure (SMILES)	target or system	test	test system	conditions	how to read	quantity	result
COc1ccccc1-c1n[nH]c2nc(NC3CCN(C(=O)Cc4ccc(F)cc4F)CC3)ncc12		bead binding, competition bead pull-down, refers to: LINJ.32.1060	Leishmania donovani extract	10 µM	relative to: vehicle	relative abundance	0.89
COCc1cc(O)c(=O)c(O)c(C(=O)OC)c1C(=O)OC	HepDES19					CC50	> 90 µM
CC(C)[C@H]1NC(=O)C[C@H]2/C=C/CCSSC[C@@H](NC1=O)C(=O)N[C@H](Cc1cccc3ccccc13)C(=O)NCC(=O)O2	Serine/threonine-protein kinase Nek2 (NEK2, Homo sapiens, UniProt P51955)	enzyme activity, inhibitor		10 µM		inhibition	2.5%
CN(C)[C@H]1C[C@@]23CC[C@@]4(O2)C(=CC[C@]2(C)[C@@H](c5ccc6ccncc6c5)CC[C@H]24)C=C3[C@@H](O)[C@@H]1O	Serine/threonine-protein kinase PLK1 (PLK1, Homo sapiens, UniProt P53350)	ATP probe labelling, inhibitor, KiNativ profiling		0.1 µM		inhibition	-8.3%
CC(C)(C)C(=O)OCOP(=O)(OCOC(=O)C(C)(C)C)C1CCCN(O)C1=O (stereo not drawn)	K562					log GI50	-6.41 log M
CCOC(=O)c1cc(O)c(=O)c(O)cc1C	HepDES19					CC50	93 ± 25 µM
O=C(O)Cn1c(C2CC2)nc2ccccc21	Vero (eGFP)			15 h		CC50	> 100 µM
COc1cc(OC)cc([C@@H]2c3cc(/C=C/c4cc(O)cc(O)c4)ccc3O[C@H]2c2ccc(O)cc2)c1	human cells			1 (unit not given)		CC50	1250 µM
NC(=O)[C@@H](CCC(F)(F)F)N(Cc1ccc(-c2ncon2)cc1F)S(=O)(=O)c1ccc(Cl)cc1	Huh-7.5.1	cell growth or viability, ATP luminescence		48 h		CC50	56.1 µM
Cc1cc(O)c(=O)c(O)cc1-c1cccc2ccccc12	HepDES19					CC50	29 ± 4.3 µM
CS(C)(=O)=Nc1ccc(-c2ccc(-c3nc4cc(O[C@@H]5CO[C@H]6[C@@H]5OC[C@H]6O)[nH]c4cc3F)cc2)cc1	Vascular endothelial growth factor receptor 3 (FLT4, Homo sapiens, UniProt P35916)	enzyme activity, inhibitor		10 µM		inhibition	8%
COc1cc(/C=C/c2ccc3c(c2)[C@@H](c2cc(OC)cc(OC)c2)[C@H](c2ccc(O)cc2)O3)cc(OC)c1	human cells			1 (unit not given)		CC50	1030 µM
COC(=O)c1c(C)cc(O)c(=O)c(O)c1C(=O)OC	HepDES19					CC50	38 ± 2 µM
CCOC(=O)c1c(-c2ccccc2)oc2c([N+](=O)[O-])cc([N+](=O)[O-])cc12	Vero (eGFP)			15 h		CC50	> 100 µM
Cc1ccc(NS(=O)(=O)c2c(C(=O)N3CCCCCC3)c(C)n(C)c2C)c(Cl)c1	human cells			0.015 µM, 60 h		viability	99.4%
CC(C)C(=O)OC[C@H]1O[C@@](C#N)(n2ccc(N)nc2=O)[C@H](O)[C@@H]1O	CEM					CC50	12.5 ± 5.5 µM
COc1cc(/C=C/c2ccc3c(c2)[C@@H](c2cc(O)cc(O)c2)[C@H](c2ccc(O)cc2)O3)cc(OC)c1	Calu-3			24 (unit not given)		CC50	43 µM
O=C1NC2(CC2)COc2ncc(F)cc2[C@H]2COCCN2c2ccn3ncc1c3n2			Sprague-Dawley rat, female, heart	oral, 2.5 mg/kg/day, 4 weeks dosing, end of recovery		organ-to-brain weight ratio	54.5 ± 5.47%

A few entries again:
Structure (SMILES)	target or system	test	test system	conditions	how to read	quantity	result
Cc1ccccc1CN1CCC(C(=O)N2CCc3ccccc32)CC1	Vero (eGFP)			15 h		CC50	> 100 µM
O=c1c(O)ccc(-c2cccc(-c3ccccc3)c2)cc1O	HepDES19					CC50	56 ± 7.4 µM
COc1ccc(-c2cnc3c(C#Cc4cccnc4)snc3c2)cc1OC	human cells			24 (unit not given)		CC50	> 10 µM
CCC(C)C1OC2(CCC1C)CC1CC(C/C=C(\C)C(OC3CC(OC)C(OC4CC(OC)C(O)C(C)O4)C(C)O3)C(C)/C=C/C=C3\COC4C(O)C(C)=CC(C(=O)O1)C34O)O2 (stereo not drawn)	FRT	cell growth or viability, MTS		48 h		CC50	10.5 µM
